Assay results from different studies.
Each line is one published result; not all experiments were run side by side. Values joined by “and” are separate records of one study, mostly repeats; a detail may differ. ± gives the spread as reported.
pyrD: Dihydroorotate dehydrogenase (quinone) (pyrD, Acinetobacter baumannii, UniProt B7GZW7)
Chain of UniProt B7GZW7 (whole entry, looked up): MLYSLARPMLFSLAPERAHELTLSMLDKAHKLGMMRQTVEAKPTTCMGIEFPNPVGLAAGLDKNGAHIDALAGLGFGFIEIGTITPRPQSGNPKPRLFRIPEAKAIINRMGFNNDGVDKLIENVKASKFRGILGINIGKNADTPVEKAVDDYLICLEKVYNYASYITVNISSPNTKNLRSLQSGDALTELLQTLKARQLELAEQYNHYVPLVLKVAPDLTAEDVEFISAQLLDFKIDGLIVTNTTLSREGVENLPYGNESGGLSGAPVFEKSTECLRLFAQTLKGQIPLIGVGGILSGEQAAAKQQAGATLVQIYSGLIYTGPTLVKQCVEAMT
AKR1B1: Aldo-keto reductase family 1 member B1 (AKR1B1, Homo sapiens, UniProt P15121)
Kir3.1/Kir3.4: Kir3.1/Kir3.4 (Homo sapiens, UniProt P48544+P48549)
Chain of UniProt P48549 (whole entry, looked up): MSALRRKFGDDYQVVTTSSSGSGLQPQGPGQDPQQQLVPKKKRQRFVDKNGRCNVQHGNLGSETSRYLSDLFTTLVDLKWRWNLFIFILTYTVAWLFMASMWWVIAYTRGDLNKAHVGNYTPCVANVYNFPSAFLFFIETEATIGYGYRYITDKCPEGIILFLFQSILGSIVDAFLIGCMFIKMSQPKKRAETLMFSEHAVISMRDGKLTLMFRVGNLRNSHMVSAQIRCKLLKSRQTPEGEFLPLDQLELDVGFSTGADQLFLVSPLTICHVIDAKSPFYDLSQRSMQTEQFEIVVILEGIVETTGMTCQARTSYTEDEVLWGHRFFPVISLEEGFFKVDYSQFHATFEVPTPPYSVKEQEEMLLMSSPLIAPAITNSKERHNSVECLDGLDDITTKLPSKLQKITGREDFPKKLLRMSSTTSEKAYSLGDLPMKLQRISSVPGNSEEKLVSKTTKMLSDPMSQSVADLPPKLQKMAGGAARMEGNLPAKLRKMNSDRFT
GRK4: G protein-coupled receptor kinase 4 (GRK4, Homo sapiens, UniProt P32298)
Chain of UniProt P32298 (whole entry, looked up): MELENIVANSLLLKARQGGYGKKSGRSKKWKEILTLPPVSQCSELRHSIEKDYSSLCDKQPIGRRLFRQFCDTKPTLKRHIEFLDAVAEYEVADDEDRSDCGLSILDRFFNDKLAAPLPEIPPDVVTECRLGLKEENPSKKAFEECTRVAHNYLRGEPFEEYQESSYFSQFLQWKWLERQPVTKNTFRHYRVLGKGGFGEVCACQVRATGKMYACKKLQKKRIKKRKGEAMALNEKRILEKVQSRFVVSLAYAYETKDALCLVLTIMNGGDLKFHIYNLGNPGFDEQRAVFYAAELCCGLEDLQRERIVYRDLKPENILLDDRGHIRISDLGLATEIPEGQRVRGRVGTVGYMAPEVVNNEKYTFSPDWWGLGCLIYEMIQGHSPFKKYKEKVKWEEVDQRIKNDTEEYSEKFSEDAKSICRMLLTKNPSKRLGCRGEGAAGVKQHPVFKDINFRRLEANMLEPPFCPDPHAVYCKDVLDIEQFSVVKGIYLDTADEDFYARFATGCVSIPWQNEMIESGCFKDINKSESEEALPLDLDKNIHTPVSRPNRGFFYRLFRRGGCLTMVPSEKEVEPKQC
DNMT1: DNA (cytosine-5)-methyltransferase 1 (DNMT1, Homo sapiens, UniProt P26358)
Chain of UniProt P26358 (whole entry, looked up): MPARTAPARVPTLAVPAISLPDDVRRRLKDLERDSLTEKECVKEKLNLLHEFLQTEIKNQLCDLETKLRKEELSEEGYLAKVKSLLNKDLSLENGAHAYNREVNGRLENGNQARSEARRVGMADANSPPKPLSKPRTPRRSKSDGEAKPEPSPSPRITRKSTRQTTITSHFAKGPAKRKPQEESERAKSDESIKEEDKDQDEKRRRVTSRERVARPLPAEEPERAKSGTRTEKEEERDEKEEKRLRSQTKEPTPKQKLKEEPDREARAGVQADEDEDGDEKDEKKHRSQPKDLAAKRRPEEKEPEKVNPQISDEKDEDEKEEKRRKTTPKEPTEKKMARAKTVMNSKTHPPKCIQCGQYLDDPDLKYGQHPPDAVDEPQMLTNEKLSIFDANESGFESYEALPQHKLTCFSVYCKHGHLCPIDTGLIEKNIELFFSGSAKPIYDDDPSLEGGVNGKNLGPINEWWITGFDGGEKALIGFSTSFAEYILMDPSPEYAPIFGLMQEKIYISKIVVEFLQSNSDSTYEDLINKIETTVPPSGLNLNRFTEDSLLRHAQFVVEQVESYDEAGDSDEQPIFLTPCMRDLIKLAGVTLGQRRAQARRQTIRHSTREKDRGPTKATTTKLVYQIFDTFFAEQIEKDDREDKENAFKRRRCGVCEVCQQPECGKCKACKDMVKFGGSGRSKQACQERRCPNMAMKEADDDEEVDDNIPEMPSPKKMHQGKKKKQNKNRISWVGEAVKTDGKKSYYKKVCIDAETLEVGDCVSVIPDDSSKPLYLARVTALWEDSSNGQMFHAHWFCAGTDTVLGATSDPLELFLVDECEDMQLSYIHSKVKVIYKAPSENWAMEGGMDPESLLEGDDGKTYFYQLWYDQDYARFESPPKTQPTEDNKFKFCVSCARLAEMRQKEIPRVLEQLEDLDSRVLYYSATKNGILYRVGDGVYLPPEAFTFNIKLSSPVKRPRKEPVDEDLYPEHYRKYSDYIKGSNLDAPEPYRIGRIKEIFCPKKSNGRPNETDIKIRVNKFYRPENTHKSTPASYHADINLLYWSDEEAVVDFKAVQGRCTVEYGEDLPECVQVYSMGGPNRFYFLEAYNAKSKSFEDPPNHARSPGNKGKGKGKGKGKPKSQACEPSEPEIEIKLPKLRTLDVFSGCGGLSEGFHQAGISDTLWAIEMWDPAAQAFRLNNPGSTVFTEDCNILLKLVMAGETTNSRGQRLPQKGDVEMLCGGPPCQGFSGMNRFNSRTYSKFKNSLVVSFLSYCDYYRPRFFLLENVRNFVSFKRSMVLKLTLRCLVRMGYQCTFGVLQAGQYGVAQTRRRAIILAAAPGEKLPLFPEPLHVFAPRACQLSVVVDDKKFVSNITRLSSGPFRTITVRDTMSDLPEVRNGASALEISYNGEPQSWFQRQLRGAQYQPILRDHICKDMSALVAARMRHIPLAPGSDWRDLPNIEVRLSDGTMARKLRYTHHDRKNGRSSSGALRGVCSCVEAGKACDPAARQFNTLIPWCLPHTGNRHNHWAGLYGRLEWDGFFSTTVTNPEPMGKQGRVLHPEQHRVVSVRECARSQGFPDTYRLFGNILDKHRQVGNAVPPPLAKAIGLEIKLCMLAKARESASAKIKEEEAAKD
T1: riboswitch RNA yjdF aptamer domain (Bacillus subtilis); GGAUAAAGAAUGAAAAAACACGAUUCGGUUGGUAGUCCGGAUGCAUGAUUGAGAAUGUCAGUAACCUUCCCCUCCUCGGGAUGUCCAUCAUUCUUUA
Chain of UniProt Q64663 (whole entry, unmodified, looked up): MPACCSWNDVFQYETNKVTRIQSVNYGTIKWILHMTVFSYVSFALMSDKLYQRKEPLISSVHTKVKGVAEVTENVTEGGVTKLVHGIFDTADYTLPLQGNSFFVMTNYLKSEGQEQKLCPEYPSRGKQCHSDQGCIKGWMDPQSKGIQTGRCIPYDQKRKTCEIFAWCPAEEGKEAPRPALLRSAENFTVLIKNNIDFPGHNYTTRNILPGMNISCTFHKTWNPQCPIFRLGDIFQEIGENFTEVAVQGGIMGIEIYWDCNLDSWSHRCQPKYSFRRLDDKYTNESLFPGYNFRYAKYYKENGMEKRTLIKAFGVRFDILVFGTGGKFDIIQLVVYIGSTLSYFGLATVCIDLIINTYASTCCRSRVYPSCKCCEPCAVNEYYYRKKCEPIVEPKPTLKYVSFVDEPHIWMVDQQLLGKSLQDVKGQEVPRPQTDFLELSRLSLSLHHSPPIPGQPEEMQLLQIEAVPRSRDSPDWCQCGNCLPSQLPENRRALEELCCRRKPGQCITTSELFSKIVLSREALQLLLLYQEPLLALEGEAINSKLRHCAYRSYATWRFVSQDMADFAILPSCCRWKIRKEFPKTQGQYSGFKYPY
Chain of UniProt P51575 (whole entry, unmodified, looked up): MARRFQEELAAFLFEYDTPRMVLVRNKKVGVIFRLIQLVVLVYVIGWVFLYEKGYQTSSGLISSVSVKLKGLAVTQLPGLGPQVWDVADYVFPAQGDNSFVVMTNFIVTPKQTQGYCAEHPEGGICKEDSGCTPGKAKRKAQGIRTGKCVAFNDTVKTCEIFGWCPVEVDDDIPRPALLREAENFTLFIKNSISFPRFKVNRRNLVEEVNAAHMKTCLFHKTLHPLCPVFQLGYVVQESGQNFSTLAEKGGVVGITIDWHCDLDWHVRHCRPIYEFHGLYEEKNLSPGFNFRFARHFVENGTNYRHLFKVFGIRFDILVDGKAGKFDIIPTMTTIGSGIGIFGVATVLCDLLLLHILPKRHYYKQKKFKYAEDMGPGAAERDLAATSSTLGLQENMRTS
Chain of UniProt Q16774 (whole entry, unmodified, looked up): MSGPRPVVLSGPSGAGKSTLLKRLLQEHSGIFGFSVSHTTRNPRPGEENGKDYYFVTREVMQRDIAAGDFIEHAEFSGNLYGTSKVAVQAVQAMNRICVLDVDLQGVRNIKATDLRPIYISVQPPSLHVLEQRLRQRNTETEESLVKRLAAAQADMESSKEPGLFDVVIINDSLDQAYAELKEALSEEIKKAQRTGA
Chain of UniProt Q15008 (whole entry, looked up): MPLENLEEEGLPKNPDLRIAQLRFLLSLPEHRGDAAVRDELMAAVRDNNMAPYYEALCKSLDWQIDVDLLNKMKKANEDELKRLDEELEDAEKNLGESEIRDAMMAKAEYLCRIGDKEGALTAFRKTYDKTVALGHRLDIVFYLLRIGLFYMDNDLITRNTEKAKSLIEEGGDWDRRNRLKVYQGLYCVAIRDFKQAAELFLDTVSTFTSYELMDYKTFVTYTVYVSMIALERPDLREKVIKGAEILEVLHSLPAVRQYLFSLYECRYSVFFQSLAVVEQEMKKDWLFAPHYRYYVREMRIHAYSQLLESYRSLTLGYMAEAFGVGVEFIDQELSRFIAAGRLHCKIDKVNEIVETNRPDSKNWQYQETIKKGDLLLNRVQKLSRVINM
Chain of UniProt P14902 (whole entry, looked up): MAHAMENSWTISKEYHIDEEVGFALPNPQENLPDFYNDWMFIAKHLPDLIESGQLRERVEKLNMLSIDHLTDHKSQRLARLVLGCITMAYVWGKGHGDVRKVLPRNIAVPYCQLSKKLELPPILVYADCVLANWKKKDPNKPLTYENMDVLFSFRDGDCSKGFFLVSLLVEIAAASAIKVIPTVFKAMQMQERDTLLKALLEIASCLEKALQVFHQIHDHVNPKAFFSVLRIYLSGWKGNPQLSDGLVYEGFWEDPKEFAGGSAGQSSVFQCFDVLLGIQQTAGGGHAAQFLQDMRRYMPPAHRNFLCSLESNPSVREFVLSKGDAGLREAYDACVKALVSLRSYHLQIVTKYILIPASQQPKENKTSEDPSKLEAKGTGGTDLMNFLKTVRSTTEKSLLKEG

Compound	target	test	test system	conditions	how to read	measurement	value
CSc1nc2nc(C)cc(Nc3cc(F)c(C(F)(F)F)c(F)c3)n2n1	pyrD	enzyme activity, inhibitor, colorimetric HTS, measured: DCIP reduction	–	3 µM	direction not given	robust Z-score	24.2
C=CC1=C(C)/C(=C/C2=NC(=C\c3[nH]c(/C=C4\NC(=O)C(C)=C4C=C)c(C)c3CCC(=O)O)/C(CCC(=O)O)=C2C)NC1=O	T1, riboswitch RNA yjdF aptamer domain (Bacillus subtilis)	fluorescence titration	–	–	–	Kd	640 nM
O=C(CN1C(=O)S/C(=C\c2cccc([N+](=O)[O-])c2)C1=O)c1ccc([N+](=O)[O-])cc1	AKR1B1	enzyme activity, inhibitor	–	–	–	log IC50	2.71 log nM
Cc1cc(Nc2ccc(S(F)(F)(F)(F)F)cc2)n2nc(C)nc2n1	pyrD	enzyme activity, inhibitor, colorimetric HTS, measured: DCIP reduction	–	3 µM	direction not given	robust Z-score	23.3
O=C(COc1ccc(Cl)cc1Cl)Nc1cc(C2CCC2)nn1C1CCC(F)(F)CC1	Kir3.1/Kir3.4	thallium flux, activator	HEK293	–	baseline: standard compound	Emax	< 10%
CNc1ncc2c(/C=C/C(=O)N3CCC(OC)CC3)nn(Cc3cccc(C(F)(F)F)c3)c2n1	GRK4	kinase activity, inhibitor	–	1 µM	baseline: untreated control	remaining activity	116%
Cc1nn(C2CCS(=O)(=O)C2)c(C)c1NC(=O)COc1cccc(Cl)c1Cl (stereo not drawn)	Kir3.1/Kir3.4	activator, thallium flux	HEK293	concentration not given	–	activity	inactive
Nc1ncnc2c1ncn2[C@@H]1O[C@H](COP(=O)(O)CP(=O)(O)OP(=O)(O)O)[C@@H](O)[C@H]1O	P2X purinoceptor 1 (P2RX1, Homo sapiens, UniProt P51575, R139P)	calcium influx	–	31.6 nM	baseline: ionomycin response	calcium influx	1.21% and 1.83% and 1.01%
O=C(NC1CCC1)c1ccc2nc(-c3cccc(NS(=O)(=O)NCCN4CCCCC4)c3)cn2c1	GRK4	enzyme activity	–	10 µM	–	remaining activity	100%
Cc1cc(Nc2ccc(C(C)(C)C)cc2)n2nc(C(C)(F)F)nc2n1	pyrD	enzyme activity, inhibitor, colorimetric HTS, measured: DCIP reduction	–	3 µM	direction not given	robust Z-score	19.2
CC(/C=C1\SC(=S)N(CC(=O)O)C1=O)=C\c1ccccc1	AKR1B1	enzyme activity, inhibitor	–	–	–	Hill slope	-0.551
N#Cc1ccn2c(-c3ccncc3)c(-c3ccc(F)cc3)nc2c1	Cyclin-dependent kinase 1 (CDC28, Candida albicans, UniProt P43063)	kinase binding, competitor, MIB/MS competition, measured: CDC28	Candida albicans cell lysate	100 nM	baseline: DMSO	log2 fold change	-0.242
NS(=O)(=O)NCCNc1nonc1C(=NO)Nc1ccc(F)c(Br)c1	Indoleamine 2,3-dioxygenase 1 (IDO1, Homo sapiens, UniProt P14902)	nanoDSF	2% DMSO	50 µM, unlabelled protein, 2 mM DTT	–	inflection temperature	65.3 ± 0.2 °C
[O-][S+]1CCCCS1 (stereo not drawn)	Superoxide dismutase [Cu-Zn] (SOD1, Homo sapiens, UniProt P00441, G94A)	LC-MS	brain homogenate	100 µM, 1 h, 37 °C	–	SOD1 monomer fraction	73%
CC(=O)Nc1ccc(O)cc1	Bromodomain-containing protein 4 (BRD4, Homo sapiens, UniProt O60885)	19F NMR, measured: tyrosine 119	–	375 µM	baseline: free protein	chemical shift change	0.022 ppm
CC(=O)N[C@H](C(=O)N1C[C@H](O)C[C@H]1C(=O)NCc1ccc(-c2scnc2C)cc1)C(C)(C)SCCCCCCNC(=O)C[C@@H]1N=C(c2ccc(Cl)cc2)c2c(sc(C)c2C)-n2c(C)nnc21	BRD2/VHL, BD1; with VCB (Homo sapiens, UniProt P25440+P40337, K107A/Q101K/V106E)	ITC	–	25 °C, unit not given, together with: BRD2 BD1	baseline: ternary over binary	ΔpKd	0.8 ± 0.2
O=C(COP(=O)(O)O)[C@@H](O)[C@H](O)[C@H](O)COP(=O)(O)O	26S proteasome non-ATPase regulatory subunit 6 (Homo sapiens, UniProt Q15008)	thermal proteome profiling, measured: PSMD6	HepG2 cell lysate	concentration not given, 57 over 37 °C	baseline: compound over control	thermal stability ratio	0.423 and 0.684 and 0.552
CC(=O)NCC(=O)NCC(=O)N[C@H](C(=O)N[C@@H](Cc1ccc(O)cc1)C(=O)N[C@@H](CO)C(=O)N[C@H]1CSSC[C@@H](C(=O)N[C@@H](CCCNC(=N)N)C(=O)N2CCC[C@H]2C(=O)N[C@@H](CCC(N)=O)C(=O)N[C@@H](CCCNC(=N)N)C(=O)NCC(=O)NCCC(=O)N[C@@H](CCCCNC(=O)CN(CC(=O)NCCCC[C@H](NC(=O)CCNC(=O)CNC(=O)[C@H](CCCNC(=N)N)NC(=O)[C@H](CCC(N)=O)NC(=O)[C@@H]2CCCN2C(=O)[C@H](CCCNC(=N)N)NC(=O)[C@@H]2CSSC[C@H](NC(=O)[C@H](CO)NC(=O)[C@H](Cc3ccc(O)cc3)NC(=O)[C@@H](NC(=O)CNC(=O)CNC(C)=O)[C@@H](C)O)C(=O)N[C@@H](Cc3c[nH]cn3)C(=O)N[C@@H](Cc3ccccc3)C(=O)NCC(=O)N[C@@H](C)C(=O)N[C@@H](CC(C)C)C(=O)N[C@@H]([C@@H](C)O)C(=O)N[C@@H](Cc3c[nH]c4ccccc34)C(=O)N[C@@H](C(C)C)C(=O)N2)C(N)=O)C(=O)CCN)C(N)=O)NC(=O)[C@H](C(C)C)NC(=O)[C@H](Cc2c[nH]c3ccccc23)NC(=O)[C@H]([C@@H](C)O)NC(=O)[C@H](CC(C)C)NC(=O)[C@H](C)NC(=O)CNC(=O)[C@H](Cc2ccccc2)NC(=O)[C@H](Cc2c[nH]cn2)NC1=O)[C@@H](C)O	Erythropoietin receptor, extracellular domain (Homo sapiens, UniProt P19235)	binding, SPR	–	1:1 binding model	–	kon	6.77e+06 M⁻¹ s⁻¹
CCCCO	ADH1 (Saccharomyces cerevisiae, UniProt P00330)	enzyme activity, substrate	–	pH 6	–	Km	~100 mM
CC(C)[C@H](N)C(=O)Nc1ccc2ccccc2c1	rat aminopeptidase III	substrate	–	concentration not given, pH 7.0	–	hydrolysis	inactive

Compound	target	test	test system	conditions	how to read	measurement	value
[H]/N=C(/N)NCC(=O)O	Sodium- and chloride-dependent taurine transporter (SLC6A6, Homo sapiens, UniProt P31641, Y138A)	binding, microscale thermophoresis	–	62.5 µM, room temperature, together with: 50 nM labelled protein	higher = more binding	normalised MST signal	-0.0158
CCc1c(C#N)c(SC(C(N)=O)c2ccccc2)nc(N(C)CC(=O)NC)c1C#N (stereo not drawn)	DNMT1	degrader, western blot	HCT-116	500 nM, 2 h	–	degradation	~50%
S=c1[nH]nc(-c2ccccn2)o1	P2X purinoceptor 4 (P2RX4, Homo sapiens, UniProt Q99571)	calcium mobilization	MCF7 stably transfected	100 µM, together with: ATP 100 µM	–	fluorescence increase	82.4 ± 0.54%
Nc1nc2c(ncn2[C@@H]2O[C@H](COP(=O)(O)O)[C@@H](O)[C@H]2O)c(=O)[nH]1	GUK1 (Homo sapiens, UniProt Q16774, R44A)	enzyme activity, NADH-coupled	–	250 µM	–	reaction rate	-0.564 s⁻¹ and -0.171 s⁻¹ and -0.839 s⁻¹
Oc1ccc(/C=C/c2cc(O)cc(O)c2)cc1	O-methyltransferase (Sorghum bicolor, UniProt A0A1B6PFV1)	–	–	concentration not given, together with: MTA+	–	ΔH of binding	-15.1 ± 0.044 kcal/mol
C=CC(=O)N1CCC(COCC(=O)N2CCN(c3nc(-c4cnc(N)nc4C(F)F)nc(N4CCOC[C@@H]4C)n3)CC2)CC1	Membrane-associated tyrosine- and threonine-specific cdc2-inhibitory kinase (PKMYT1, Homo sapiens, UniProt Q99640)	KINOMEscan	–	1 µM	baseline: DMSO control	remaining binding	92%
Cc1cc(Nc2ccc(C(F)(F)F)cc2)n2ncnc2n1	pyrD	enzyme activity, inhibitor, colorimetric HTS, measured: DCIP reduction	–	3 µM	direction not given	robust Z-score	19.7
CC(C)C[C@H](N)C(=O)O	snf (Aquifex aeolicus, UniProt O67854)	isothermal titration calorimetry	–	concentration not given, pH 7.0, 25 °C	–	binding stoichiometry	0.7 ± 0.01 mol/mol LeuT
C[C@]12C[C@H](O)[C@H]3[C@@H](CCC4=CC(=O)CC[C@@]43C)[C@@H]1CC[C@@H]2C(=O)CO	Cytochrome P450 11B1, mitochondrial (CYP11B1, Homo sapiens, UniProt P15538, V320A)	substrate	–	100 µM, 37 °C, phospholipid vesicles	–	NADPH consumption rate, 18-hydroxylation	65.9 ± 6.7 min⁻¹
CCS(=O)(=O)N1CC(CC#N)(n2cc(-c3ncnc4[nH]ccc34)cn2)C1	Alpha-1-acid glycoprotein 1 (ORM1, Homo sapiens, UniProt P02763)	modified Stern-Volmer	–	303 K	–	fraction of accessible fluorescence	0.67
O=c1nc(SCc2cc(F)cc(C(F)(F)F)c2)nc(SCc2ccc3sccc3c2)[nH]1	DNA topoisomerase 2-alpha (TOP2A, Homo sapiens, UniProt P11388)	DNA relaxation	–	31.25 µM, replicate 2	–	relaxed DNA	0%
CC1=C(/C=C/C(C)=C/C=C/C(C)=C/C=O)C(C)(C)CCC1	Rhodopsin (RHO, Bos taurus, UniProt P02699, F273A)	retinal release, Trp FRET	lipid bicelles	28 °C, F273A mutant	baseline: wild-type rhodopsin	relative koff	2.33 ± 0.87
Cc1cc2c(NC(=O)c3cccc(C(=O)O)c3)cccc2nn1	CREB-binding protein, bromodomain (CREBBP, Homo sapiens, UniProt Q92793)	binding	–	–	–	ligand efficiency	0.35
N[C@@H](Cc1ccc(O)cc1)C(=O)Nc1ccc2ccccc2c1	rat aminopeptidase III	substrate	–	MW 110 kDa	–	kcat	3.43 s⁻¹
Nc1ncnc2c1ncn2[C@@H]1O[C@H](COP(=O)(O)OP(=O)(O)OP(=O)(O)O)[C@@H](O)[C@H]1O	P2X purinoceptor 7 (P2rx7, Rattus norvegicus, UniProt Q64663)	ion current, agonist, two-electrode voltage clamp	Xenopus laevis oocytes	333 µM	baseline: highest concentration response	normalized current	0.95 and 0.93 and 1
CCOCc1nc(O)c(-c2nnc(Cc3ccc(Cl)cn3)o2)c(O)c1-c1c(OC)cccc1OC	Apelin receptor (APLNR, Homo sapiens, UniProt P35414)	GαoA activation, agonist, BRET biosensor	HEK293	–	–	Emax	102 ± 3%
NCCS(=O)(=O)O	Sodium- and chloride-dependent taurine transporter (SLC6A6, Homo sapiens, UniProt P31641, S402A)	binding, microscale thermophoresis	–	1.95 µM, room temperature, together with: 50 nM labelled protein	higher = more binding	normalised MST signal	-0.0066
O=C1S/C(=C\c2ccc(F)cc2)C(=O)N1Cc1nc2ccccc2s1	AKR1B1	enzyme activity, inhibitor	–	–	–	log IC50	2.52 log nM
Nc1nc(=O)n([C@H]2C[C@H](O)[C@@H](CO)O2)cc1CSCC[C@H](N)C(=O)O	DNMT1	radiometric [3H]-SAM	–	concentration not given, together with: SAM, poly(dI-dC)	–	inhibition type	inhibited
